{"data": "Published values from different studies", "B1": "VCL head domain 1; chain MPVFHTRTIESILEPVAQQISHLVIMHEEGEVDGKAIPDLTAPVSAVQAAVSNLVRVGKETVQTTEDQILKRDMPPAFIKVENACTKLVRAAQMLQADPYSVPARDYLIDGSRGILSGTSDLLLTFDEAEVRKIIRVCKGILEYLTVAEVVETMEDLVTYTKNLGPGMTKMAKMIDERQQELTHQEHRVMLVNSMNTVKELLPVLISAMKIFVTTKNTKSQGIEEALKNRNFTVEKMSAEINEIIRVLQLTSWDEDAW", "B2": "rsd G14E/Y34F (Escherichia coli, UniProt P0AFX4); chain MLNQLDNLTERVRESNKLVDRWLHVRKHLLVAYFNLVGIKPGKESYMRLNEKALDDFCQSLVDYLSAGHFSIYERILHKLEGNGQLARAAKIWPQLEANTQQIMDYYDSSLETAIDHDNYLEFQQVLSDIGEALEARFVLEDKLILLVLDAARVKHPA", "B3": "GPIHBP1 21-151 (Homo sapiens, UniProt Q8IV16); sequence looked up; chain QTQQEEEEEDEDHGPDDYDEEDEDEVEEEETNRLPGGRSRVLLRCYTCKSLPRDERCNLTQNCSHGQTCTTLIAHGNTESGLLTTHSTWCTDSCQPITKTVEGTQVTMTCCQSSLCNVPPWQSSRVQDPTG", "B4": "Reg2 (Mus musculus, UniProt Q08731); sequence looked up; chain QVAEEDFPLAEKDLPSAKINCPEGANAYGSYCYYLIEDRLTWGEADLFCQNMNAGHLVSILSQAESNFVASLVKESGTTASNVWTGLHDPKSNRRWHWSSGSLFLFKSWATGAPSTANRGYCVSLTSNTAYKKWKDENCEAQYSFVCKFRA", "B5": "Efnb1 25-236 (Mus musculus, UniProt P52795); sequence looked up; chain ATPLAKNLEPVSWSSLNPKFLSGKGLVIYPKIGDKLDIICPRAEAGRPYEYYKLYLVRPEQAAACSTVLDPNVLVTCNKPHQEIRFTIKFQEFSPNYMGLEFKKYHDYYITSTSNGSLEGLENREGGVCRTRTMKIVMKVGQDPNAVTPEQLTTSRPSKESDNTVKTATQAPGRGSQGDSDGKHETVNQEEKSGPGAGGGGSGDSDSFFNSK", "B6": "CXCL11 (UniProt O14625); chain FPMFKRGRCLCIGPGVKAVKVADIEKASIMYPSNNCDKIEVIITLKENKGQRCLNPKSKQARLIIKKVERKNF", "B7": "TIMP3 24-144 (Homo sapiens, UniProt P35625); sequence looked up; chain CTCSPSHPQDAFCNSDIVIRAKVVGKKLVKEGPFGTLVYTIKQMKMYRGFTKMPHVQYIHTEASESLCGLKLEVNKYQYLLTGRVYDGKMYTGLCNFVERWDQLTLSQRKGLNYRYHLGCN", "B8": "UGT1A9 (Homo sapiens, UniProt O60656); chain GKLLVVPMDGSHWFTMRSVVEKLILRGHEVVVVMPEVSWQLGRSLNCTVKTYSTSYTLEDLDREFKAFAHAQWKAQVRSIYSLLMGSYNDIFDLFFSNCRSLFKDKKLVEYLKESSFDAVFLDPFDNCGLIVAKYFSLPSVVFARGILCHYLEEGAQCPAPLSYVPRILLGFSDAMTFKERVRNHIMHLEEHLLCHRFFKNALEIASEILQTPVTEYDLYSHTSIWLLRTDFVLDYPKPVMPNMIFIGGINCHQGKPLPMEFEAYINASGEHGIVVFSLGSMVSEIPEKKAMAIADALGKIPQTVLWRYTGTRPSNLANNTILVKWLPQNDLLGHPMTRAFITHAGSHGVYESICNGVPMVMMPLFGDQMDNAKRMETKGAGVTLNVLEMTSEDLENALKAVINDKSYKENIMRLSSLHKDRPVEPLDLAVFWVEFVMRHKGAPHLRPAAHDLTWYQYHSLDVIGFLLAVVLTVAFITFKCCAYGYRKCLGKKGRVKKAHKSKTH", "B9": "erenumab; V domains shown; sequence looked up; VH QVQLVESGGGVVQPGRSLRLSCAASGFTFSSFGMHWVRQAPGKGLEWVAVISFDGSIKYSVDSVKGRFTISRDNSKNTLFLQMNSLRAEDTAVYYCARDRLNYYDSSGYYHYKYYGMAVWGQGTTVTVSS; VL QSVLTQPPSVSAAPGQKVTISCSGSSSNIGNNYVSWYQQLPGTAPKLLIYDNNKRPSGIPDRFSGSKSGTSTTLGITGLQTGDEADYYCGTWDSRLSAVVFGGGTKLTVL", "note": "Numbers after ± are the reported error.", "sequence of UniProt P49682 (whole entry, looked up)": "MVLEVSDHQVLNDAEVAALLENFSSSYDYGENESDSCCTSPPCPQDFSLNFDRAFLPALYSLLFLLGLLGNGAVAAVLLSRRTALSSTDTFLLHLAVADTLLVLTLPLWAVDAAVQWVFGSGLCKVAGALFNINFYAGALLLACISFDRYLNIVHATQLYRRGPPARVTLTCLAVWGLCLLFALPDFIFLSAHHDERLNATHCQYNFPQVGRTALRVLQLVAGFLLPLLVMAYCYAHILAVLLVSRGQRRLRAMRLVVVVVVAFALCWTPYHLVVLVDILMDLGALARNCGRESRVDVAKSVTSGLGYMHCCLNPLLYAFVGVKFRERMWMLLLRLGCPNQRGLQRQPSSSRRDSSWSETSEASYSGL", "sequence of UniProt Q7KQM6 (whole entry, looked up)": "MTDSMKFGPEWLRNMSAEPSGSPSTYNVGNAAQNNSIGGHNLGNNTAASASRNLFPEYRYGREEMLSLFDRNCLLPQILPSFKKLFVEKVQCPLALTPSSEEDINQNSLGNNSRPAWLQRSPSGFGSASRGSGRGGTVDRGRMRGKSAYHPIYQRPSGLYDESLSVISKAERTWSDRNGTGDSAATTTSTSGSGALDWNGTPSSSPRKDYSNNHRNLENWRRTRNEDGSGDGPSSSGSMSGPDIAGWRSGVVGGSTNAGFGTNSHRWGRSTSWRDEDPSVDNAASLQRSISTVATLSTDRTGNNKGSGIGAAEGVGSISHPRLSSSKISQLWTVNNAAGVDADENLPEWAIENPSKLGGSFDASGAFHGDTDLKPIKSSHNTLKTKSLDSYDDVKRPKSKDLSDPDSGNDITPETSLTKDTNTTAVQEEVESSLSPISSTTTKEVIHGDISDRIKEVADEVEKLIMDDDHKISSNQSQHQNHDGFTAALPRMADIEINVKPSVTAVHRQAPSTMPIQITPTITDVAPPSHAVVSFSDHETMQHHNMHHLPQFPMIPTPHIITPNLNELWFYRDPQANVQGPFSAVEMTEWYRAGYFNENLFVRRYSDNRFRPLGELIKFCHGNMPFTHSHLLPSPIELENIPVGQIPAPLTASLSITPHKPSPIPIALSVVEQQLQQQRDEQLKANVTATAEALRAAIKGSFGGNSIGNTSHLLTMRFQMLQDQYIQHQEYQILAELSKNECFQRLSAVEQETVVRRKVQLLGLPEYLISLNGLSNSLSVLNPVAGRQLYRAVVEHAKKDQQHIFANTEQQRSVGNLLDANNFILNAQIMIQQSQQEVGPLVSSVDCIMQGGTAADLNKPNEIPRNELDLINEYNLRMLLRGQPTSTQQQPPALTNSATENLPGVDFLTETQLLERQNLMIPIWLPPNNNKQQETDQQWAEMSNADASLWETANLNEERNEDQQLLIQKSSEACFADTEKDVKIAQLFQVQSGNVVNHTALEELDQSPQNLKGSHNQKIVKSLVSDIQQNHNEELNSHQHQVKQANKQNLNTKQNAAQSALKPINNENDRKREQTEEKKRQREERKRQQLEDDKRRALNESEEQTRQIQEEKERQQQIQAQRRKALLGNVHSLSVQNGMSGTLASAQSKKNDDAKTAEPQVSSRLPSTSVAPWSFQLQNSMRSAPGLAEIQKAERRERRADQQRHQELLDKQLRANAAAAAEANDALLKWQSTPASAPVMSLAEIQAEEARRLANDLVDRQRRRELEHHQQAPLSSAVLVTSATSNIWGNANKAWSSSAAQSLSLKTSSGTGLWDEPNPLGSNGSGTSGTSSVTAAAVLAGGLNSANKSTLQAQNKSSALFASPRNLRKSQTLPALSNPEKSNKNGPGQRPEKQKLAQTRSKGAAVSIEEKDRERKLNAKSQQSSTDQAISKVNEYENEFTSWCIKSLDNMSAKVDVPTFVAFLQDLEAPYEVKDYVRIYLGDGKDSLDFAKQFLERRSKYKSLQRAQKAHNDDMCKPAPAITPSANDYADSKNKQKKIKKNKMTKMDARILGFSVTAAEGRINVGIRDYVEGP", "sequence of UniProt P06881 (whole entry, looked up)": "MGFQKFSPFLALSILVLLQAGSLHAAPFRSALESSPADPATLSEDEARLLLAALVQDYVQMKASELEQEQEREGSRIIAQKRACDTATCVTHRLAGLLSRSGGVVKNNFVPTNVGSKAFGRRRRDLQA", "sequence of UniProt Q03137 (whole entry, looked up)": "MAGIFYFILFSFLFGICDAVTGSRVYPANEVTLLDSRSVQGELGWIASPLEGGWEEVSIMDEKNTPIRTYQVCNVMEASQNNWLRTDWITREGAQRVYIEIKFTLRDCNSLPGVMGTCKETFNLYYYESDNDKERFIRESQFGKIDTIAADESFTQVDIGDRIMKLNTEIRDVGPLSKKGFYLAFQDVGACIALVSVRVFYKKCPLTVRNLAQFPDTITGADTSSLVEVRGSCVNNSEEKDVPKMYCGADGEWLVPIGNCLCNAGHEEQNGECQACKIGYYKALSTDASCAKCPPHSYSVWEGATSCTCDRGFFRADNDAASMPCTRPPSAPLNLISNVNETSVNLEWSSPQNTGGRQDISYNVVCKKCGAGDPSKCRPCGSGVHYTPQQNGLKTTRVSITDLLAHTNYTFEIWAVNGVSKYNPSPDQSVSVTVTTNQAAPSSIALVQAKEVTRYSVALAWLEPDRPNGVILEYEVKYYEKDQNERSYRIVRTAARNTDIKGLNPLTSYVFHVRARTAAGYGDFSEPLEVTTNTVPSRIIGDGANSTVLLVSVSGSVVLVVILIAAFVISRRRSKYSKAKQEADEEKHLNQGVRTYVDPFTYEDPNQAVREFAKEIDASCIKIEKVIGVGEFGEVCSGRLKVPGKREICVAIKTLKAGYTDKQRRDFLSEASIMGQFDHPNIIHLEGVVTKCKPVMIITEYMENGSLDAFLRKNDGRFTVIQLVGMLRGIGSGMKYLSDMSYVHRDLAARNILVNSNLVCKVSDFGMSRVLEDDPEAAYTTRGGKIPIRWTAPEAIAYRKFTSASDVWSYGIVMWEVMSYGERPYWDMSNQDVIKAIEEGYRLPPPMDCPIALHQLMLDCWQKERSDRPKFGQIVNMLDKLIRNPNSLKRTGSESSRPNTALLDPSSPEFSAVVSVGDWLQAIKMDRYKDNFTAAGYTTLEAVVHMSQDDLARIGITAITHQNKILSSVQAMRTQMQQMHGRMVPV", "sequence of UniProt P01031 (whole entry, looked up)": "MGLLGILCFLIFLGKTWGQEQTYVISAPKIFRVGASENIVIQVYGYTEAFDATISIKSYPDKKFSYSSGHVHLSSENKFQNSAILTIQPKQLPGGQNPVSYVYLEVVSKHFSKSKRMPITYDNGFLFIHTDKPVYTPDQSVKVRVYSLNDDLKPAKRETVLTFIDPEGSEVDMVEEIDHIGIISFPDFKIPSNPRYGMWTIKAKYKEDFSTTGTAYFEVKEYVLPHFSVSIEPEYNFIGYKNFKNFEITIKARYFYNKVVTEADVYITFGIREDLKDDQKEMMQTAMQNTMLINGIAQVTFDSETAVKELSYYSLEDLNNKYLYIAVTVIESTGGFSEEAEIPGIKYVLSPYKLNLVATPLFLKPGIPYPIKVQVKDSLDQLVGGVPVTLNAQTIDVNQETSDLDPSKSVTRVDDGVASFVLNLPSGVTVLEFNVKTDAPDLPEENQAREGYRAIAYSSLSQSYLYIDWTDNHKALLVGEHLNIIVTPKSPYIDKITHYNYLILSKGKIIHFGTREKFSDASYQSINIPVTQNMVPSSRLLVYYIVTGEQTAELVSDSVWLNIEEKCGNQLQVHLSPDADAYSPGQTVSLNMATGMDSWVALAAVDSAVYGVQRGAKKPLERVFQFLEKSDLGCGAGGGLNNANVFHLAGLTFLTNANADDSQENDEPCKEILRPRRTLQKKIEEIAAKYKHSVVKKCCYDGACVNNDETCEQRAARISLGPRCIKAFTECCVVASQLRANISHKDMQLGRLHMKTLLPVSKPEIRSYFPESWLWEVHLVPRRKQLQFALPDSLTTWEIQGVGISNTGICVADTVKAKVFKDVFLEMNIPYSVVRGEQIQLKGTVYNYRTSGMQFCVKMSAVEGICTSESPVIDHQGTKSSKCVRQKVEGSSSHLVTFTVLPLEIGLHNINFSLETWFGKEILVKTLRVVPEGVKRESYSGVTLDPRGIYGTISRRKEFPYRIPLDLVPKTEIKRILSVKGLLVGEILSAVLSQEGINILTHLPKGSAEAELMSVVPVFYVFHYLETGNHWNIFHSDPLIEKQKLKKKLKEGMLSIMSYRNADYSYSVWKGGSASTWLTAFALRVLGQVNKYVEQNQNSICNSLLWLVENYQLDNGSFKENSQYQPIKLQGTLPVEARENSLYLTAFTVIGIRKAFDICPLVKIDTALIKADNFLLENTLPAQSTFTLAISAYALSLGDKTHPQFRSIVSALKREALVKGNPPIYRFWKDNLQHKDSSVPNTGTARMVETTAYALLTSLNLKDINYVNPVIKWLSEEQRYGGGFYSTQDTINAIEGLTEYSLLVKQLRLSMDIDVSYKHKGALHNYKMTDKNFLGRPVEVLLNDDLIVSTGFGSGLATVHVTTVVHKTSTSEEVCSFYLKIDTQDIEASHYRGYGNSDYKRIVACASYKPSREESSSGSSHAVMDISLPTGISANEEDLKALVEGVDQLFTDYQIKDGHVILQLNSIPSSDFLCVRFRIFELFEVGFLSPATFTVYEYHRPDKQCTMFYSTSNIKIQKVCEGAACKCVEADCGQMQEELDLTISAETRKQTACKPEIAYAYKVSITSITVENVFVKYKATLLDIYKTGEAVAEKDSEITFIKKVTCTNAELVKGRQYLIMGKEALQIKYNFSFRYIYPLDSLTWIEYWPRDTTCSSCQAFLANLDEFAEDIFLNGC", "sequence of UniProt P00429 (whole entry, looked up)": "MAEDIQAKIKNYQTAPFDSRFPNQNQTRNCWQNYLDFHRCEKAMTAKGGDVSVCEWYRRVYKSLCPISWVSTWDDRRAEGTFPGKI", "sequence of UniProt P0AGE0 (whole entry, looked up)": "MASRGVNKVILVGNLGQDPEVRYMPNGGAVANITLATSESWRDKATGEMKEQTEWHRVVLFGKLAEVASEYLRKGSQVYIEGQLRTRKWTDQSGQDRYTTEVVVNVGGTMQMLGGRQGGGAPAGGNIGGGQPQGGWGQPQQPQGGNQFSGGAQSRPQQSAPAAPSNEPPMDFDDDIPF"}
{"Molecule": "TPDYLMQLMNDKKLMSSLPNFSGIFNHLERLLDEEASRVRKDMYNDTLNGSTEK (Qki 14-67 C35S/I49A (Mus musculus, UniProt Q9QYS9))", "target or system": "itself", "assay": "CD thermal melting", "conditions": "50 µM", "endpoint": "melting temperature", "result": "38 °C"}
{"Molecule": "B1 (VCL head domain 1)", "target or system": "CTNNA3 M1-M3 259-667 (UniProt Q65CL1)", "assay": "magnetic tweezers force-jump", "endpoint": "koff", "result": "0.009 s⁻¹"}
{"Molecule": "C5a (Homo sapiens, UniProt P01031)", "target or system": "C5AR1 (Homo sapiens, UniProt P21730)", "assay": "flow cytometry", "system": "granulocytes, whole blood", "conditions": "210 nM, together with: TRAP 10 µM", "scale": "reference: TRAP alone, higher = more aggregates", "endpoint": "platelet-granulocyte aggregates", "result": "1.5 fold"}
{"Molecule": "Rigi fragment (Mus musculus)", "target or system": "Trim25 440-630 W621A (Mus musculus, UniProt Q61510)", "assay": "IFNβ reporter", "system": "HEK-293T", "scale": "reference: wild type TRIM25, higher = greater loss of enhancement", "endpoint": "reduction of IFNβ induction", "result": "31 % reduction"}
{"Molecule": "GYWKLLITIHDRKEFAKF (ITGB3 715-730 (Homo sapiens))", "target or system": "Myom1 fragment (Mus musculus)", "assay": "competition with labelled skelemin, competitor, solid-phase competition", "system": "peptide", "conditions": "20 min, 22 °C", "endpoint": "IC50", "result": "500 ± 140 nM"}
{"Molecule": "B2 (rsd G14E/Y34F)", "target or system": "rpoD (Escherichia coli, UniProt P00579)", "assay": "single-round in vitro transcription, inhibitor", "scale": "reference: absence of Rsd, higher = less inhibition", "endpoint": "remaining transcription", "result": "4%"}
{"Molecule": "Semaglutide", "target or system": "GLP1R (Homo sapiens, UniProt P43220)", "assay": "β-arrestin-2 recruitment, BRET", "system": "HEK293T", "scale": "reference: GLP-1, higher = stronger response", "endpoint": "maximal response", "result": "92 % GLP-1"}
{"Molecule": "B3 (GPIHBP1 21-151)", "target or system": "LPL mature R324A (Homo sapiens, UniProt P06858)", "assay": "native gel electrophoresis", "endpoint": "molecule per partner", "result": 1}
{"Molecule": "PYCARD (Homo sapiens, UniProt Q9ULZ3-2)", "target or system": "itself", "assay": "real-time NMR", "conditions": "495 µM", "endpoint": "forward rate constant", "result": "8.6e-10 h"}
{"Molecule": "CALCA mature alpha-CGRP (Homo sapiens, UniProt P06881)", "target or system": "CALCR whole, on cells (Homo sapiens)", "assay": "cAMP, CAMYEL BRET", "system": "COS-7", "conditions": "end-point", "endpoint": "pEC50", "result": 7.67}
{"Molecule": "B4 (Reg2)", "target or system": "Cacna1c (Mus musculus, UniProt Q01815)", "assay": "AP-tagged ligand binding", "system": "beta TC3", "scale": "reference: vector-only cells, higher = more binding", "endpoint": "AP staining", "result": "1.4 fold"}
{"Molecule": "FKF1 (UniProt Q9C9W9)", "target or system": "GI (UniProt Q9SQI2)", "assay": "reporter gene", "system": "HEK293T", "conditions": "together with: FZ 20 µM", "scale": "reference: dark, higher = stronger induction", "endpoint": "light induction of luciferase", "result": "40 fold"}
{"Molecule": "B5 (Efnb1 25-236)", "target or system": "Epha4 (Mus musculus, UniProt Q03137)", "assay": "western blot", "system": "Fc fusion, HEK293T", "conditions": "0 to 10 minutes min, together with: clustered ephrin B1 5 µg/mL", "scale": "reference: baseline, higher = more phosphorylation", "endpoint": "EphA phosphorylation", "result": "150%"}
{"Molecule": "COX6B1 (Bos taurus, UniProt P00429)", "target or system": "cytochrome c oxidase eight-subunit core (Bos taurus, UniProt P00396)", "assay": "anion exchange chromatography, RP-HPLC, SDS-PAGE", "conditions": "10 min, pH 7.2, room temperature, apparent, single transition fit", "endpoint": "urea midpoint for subunit dissociation", "result": "3.7 M"}
{"Molecule": "KIF15 Coil-1 (Homo sapiens)", "target or system": "tubulin alpha/beta microtubules, E-hook removed (Bos taurus)", "assay": "optical trap rupture assay", "endpoint": "rupture force", "result": "3.4 pN"}
{"Molecule": "B6 (CXCL11)", "target or system": "CXCR3 (Homo sapiens, UniProt P49682)", "assay": "inhibition of forskolin-raised cAMP, agonist", "system": "HEK293", "endpoint": "LogEC50", "result": -9.6}
{"Molecule": "ssb (Escherichia coli, UniProt P0AGE0)", "target or system": "recQ (Escherichia coli, UniProt P15043)", "assay": "active unwinding time fraction, magnetic tweezers", "scale": "higher = greater", "endpoint": "effective affinity ratio", "result": "1.33 ratio"}
{"Molecule": "IGF2 (Homo sapiens, UniProt P01344)", "target or system": "IGF1R (Gallus gallus)", "assay": "neurite growth", "system": "embryonic spinal motoneurons", "conditions": "0.1-10 nM", "scale": "reference: no hormone, higher = longer", "endpoint": "neurite length per neuron", "result": "152 um"}
{"Molecule": "RBM38 Pep8", "target or system": "EIF4E (Homo sapiens, UniProt P06730)", "assay": "immunoblot", "system": "RKO", "conditions": "2.5 µM, 18 h", "scale": "reference: untreated, higher = more p53", "endpoint": "p53 protein level", "result": "1.8 fold"}
{"Molecule": "B7 (TIMP3 24-144)", "target or system": "ADAMTS5 262-731 (Homo sapiens, UniProt Q9UNA0)", "assay": "inhibitor, steady-state kinetics", "conditions": "1 h, pH 7.5, 37 °C", "endpoint": "Ki", "result": "0.29 nM"}
{"Molecule": "TIMP2 N-terminal domain S4P/V6G/I35V/S68N/V71I/T99N", "target or system": "MMP14 fragment (Homo sapiens)", "assay": "fluorogenic substrate cleavage, inhibitor, enzyme inhibition assay", "conditions": "apparent", "endpoint": "Ki", "result": "464 nM"}
{"Molecule": "REC104 (Saccharomyces cerevisiae, UniProt P33323)", "target or system": "SPO11 (Saccharomyces cerevisiae, UniProt P23179)", "assay": "SEC-MALS", "endpoint": "molecule per partner", "result": 1}
{"Molecule": "4EHP (Drosophila melanogaster)", "target or system": "Gyf (Drosophila melanogaster, UniProt Q7KQM6)", "assay": "F-Luc reporter activity", "system": "S2 cells", "conditions": "tethering", "scale": "reference: λN-HA alone, lower = more repression", "endpoint": "reporter activity", "result": "20%"}
{"Molecule": "DCTN1 p150-CC1 (Homo sapiens)", "target or system": "dynein (Homo sapiens)", "assay": "TIRF microscopy", "scale": "reference: Ndel1, higher = stronger binding", "endpoint": "fold greater apparent affinity", "result": "6 fold"}
{"Molecule": "B8 (UGT1A9)", "target or system": "Oc1ccc2c(c1)OC[C@H]1c3cc4c(cc3O[C@@H]21)OCO4", "assay": "steady-state kinetics", "conditions": "pH 7.4, 37 °C", "endpoint": "Vmax", "result": "0.000234 µmol/min/mg"}
{"Molecule": "B9 (erenumab)", "target or system": "CALCR/RAMP1 on cells (Homo sapiens)", "assay": "cAMP production, antagonist, Schild analysis", "system": "antibody, HEK293S", "conditions": "together with: αCGRP", "endpoint": "pKB", "result": 6.58}
{"note": "Some of these lines once more:"}
{"Molecule": "COX6B1 (Bos taurus, UniProt P00429)", "target or system": "cytochrome c oxidase eight-subunit core (Bos taurus, UniProt P00396)", "assay": "anion exchange chromatography, RP-HPLC, SDS-PAGE", "conditions": "10 min, pH 7.2, room temperature, apparent, single transition fit", "endpoint": "urea midpoint for subunit dissociation", "result": "3.7 M"}
{"Molecule": "TPDYLMQLMNDKKLMSSLPNFSGIFNHLERLLDEEASRVRKDMYNDTLNGSTEK (Qki 14-67 C35S/I49A (Mus musculus, UniProt Q9QYS9))", "target or system": "itself", "assay": "CD thermal melting", "conditions": "50 µM", "endpoint": "melting temperature", "result": "38 °C"}
{"Molecule": "Semaglutide", "target or system": "GLP1R (Homo sapiens, UniProt P43220)", "assay": "β-arrestin-2 recruitment, BRET", "system": "HEK293T", "scale": "reference: GLP-1, higher = stronger response", "endpoint": "maximal response", "result": "92 % GLP-1"}
{"Molecule": "B2 (rsd G14E/Y34F)", "target or system": "rpoD (Escherichia coli, UniProt P00579)", "assay": "single-round in vitro transcription, inhibitor", "scale": "reference: absence of Rsd, higher = less inhibition", "endpoint": "remaining transcription", "result": "4%"}
